{"data": "Experimental data pooled from the literature", "note": "± marks the error that the study gave."}
{"Structure (SMILES)": "CC(=O)O[C@H]1C(=O)[C@@]2(C)[C@H]([C@H](OC(=O)c3ccccc3)[C@]3(O)C[C@H](OC(=O)[C@H](O)[C@@H](NC(=O)c4ccccc4)c4ccccc4)C(C)=C1C3(C)C)[C@]1(OC(C)=O)CO[C@@H]1C[C@@H]2O", "cell line": "SKGT4", "setting": "120 h", "EC50": "0.00569 µM"}
{"Structure (SMILES)": "O=C(Nc1cncc(-c2nc3ccccc3o2)c1)c1ccc(N2CCNCC2)c([N+](=O)[O-])c1", "cell line": "BJ fibroblasts", "test": "cell growth, CellTiter-Glo", "setting": "72 h", "EC50": "> 20.1 µM"}
{"Structure (SMILES)": "COc1cnc2cccc(N3CCc4c(cc(Cn5ccnc5C)cc4-c4cn(C)nc4C(F)(F)F)C3=O)c2c1", "cell line": "RKO", "test": "cell growth, inhibitor", "setting": "120 h", "EC50": "9.26 µM"}
{"Structure (SMILES)": "NC[C@H](OCC(=O)N1CCC[C@H](C(=O)NCc2nc(-c3ccc(C(F)(F)F)cc3)cs2)C1)c1ccccc1", "cell line": "Jurkat", "test": "cytotoxicity", "EC50": "~10 µM"}
{"Structure (SMILES)": "Cc1ccc(-c2nc3ccccc3s2)cc1NC(=O)c1cc([N+](=O)[O-])c(NC2CCN(C)CC2)cc1Cl", "cell line": "BJ fibroblasts", "test": "cell growth, CellTiter-Glo", "setting": "72 h", "EC50": "> 9.17 µM"}
{"Structure (SMILES)": "C[C@]12CCCN1CC1=NNC(=O)c3cc(F)cc4[nH]c2c1c34", "cell line": "DLD-1 colorectal cancer cells", "test": "cell viability", "setting": "concentration not given, with: with temozolomide", "EC50": "> 3 µM"}
{"Structure (SMILES)": "COCC(=O)N1CCC[C@H](C(=O)NCc2nc(-c3ccc(-c4ccccc4)cc3)cs2)C1", "cell line": "Jurkat", "test": "cytotoxicity", "EC50": "5.7 µM"}
{"Structure (SMILES)": "CC(C)c1ccc(C2C(C#N)=C3N=C(N)c4ccccc4N3C3=C2C(=O)CCC3)cc1 (centres unmarked)", "cell line": "HMC3", "test": "phagocytosis, high-content imaging", "setting": "geometric mean, with: pHrodo-myelin uptake", "EC50": "> 60 µM"}
{"Structure (SMILES)": "CCn1c(=O)/c(=C2\\Sc3cc(Cl)ccc3N2C)s/c1=C\\c1scc[n+]1Cc1ccccc1.[Cl-]", "cell line": "MYBPC3 iPSC-cardiomyocytes", "test": "item: MYH", "setting": "24 h", "EC50": "inactive"}
{"Structure (SMILES)": "C=C(NC(=O)C(=C)NC(=O)c1csc(C2=N[C@@H]3c4csc(n4)[C@H]4NC(=O)c5csc(n5)[C@H]([C@](C)(O)[C@@H](C)O)NC(=O)[C@H]5CSC(=N5)/C(=C/C)NC(=O)[C@H]([C@@H](C)O)NC(=O)c5csc(n5)[C@]3(CC2)NC(=O)[C@H](C)NC(=O)C(=C)NC(=O)[C@H](C)NC(=O)[C@H]([C@@H](C)CC)N[C@@H]2C=Cc3c([C@H](C)O)cc(nc3[C@H]2O)C(=O)O[C@@H]4C)n1)C(N)=O", "cell line": "SCC-61", "test": "cell viability", "EC50": "0.9 µM"}
{"Structure (SMILES)": "S=C(NCc1ccc2c(c1)OCO2)N1CCN(c2ncnc3c2oc2ccccc23)CC1", "cell line": "iPSC-derived maturing neurons", "test": "CellTiter-Blue metabolic", "setting": "24 h, 4-week maturation", "EC50": "2.5 µM"}
{"Structure (SMILES)": "Cc1cc(Cl)c(Cl)cc1NC(=O)c1ccc(N2CCNCC2)nc1", "cell line": "BJ fibroblasts", "test": "cell growth, CellTiter-Glo", "setting": "72 h", "EC50": "> 24.4 µM"}
{"Structure (SMILES)": "CCN(CC)CCNC(=O)c1c(C)[nH]c(/C=C2\\C(=O)Nc3ccc(F)cc32)c1C", "cell line": "A-375", "test": "cell viability, MTT", "setting": "72 h", "EC50": "2.9 ± 0.99 µM"}
{"Structure (SMILES)": "CCn1cc(-c2cc(Cn3ccoc3=N)cc3c2CCN([C@@H](C)c2cc(OC)ccn2)C3=O)c(C(F)(F)F)n1", "cell line": "SK-MEL-24", "test": "cell growth, inhibitor", "setting": "120 h", "EC50": "0.0155 µM"}
{"Structure (SMILES)": "Cc1ccc(-c2nc3ccccc3s2)cc1NC(=O)c1cc([N+](=O)[O-])c(NCCNC(=O)OC(C)(C)C)cc1Cl", "cell line": "BJ fibroblasts", "test": "cell growth, CellTiter-Glo", "setting": "72 h", "EC50": "> 30 µM"}
{"Structure (SMILES)": "Fc1ccc(Oc2ccc(Nc3ccc4ncc(OCC5CCNCC5)nc4c3)cc2)cc1", "cell line": "Jurkat", "test": "cell growth, XTT", "setting": "7 days", "EC50": "0.77 ± 0.1 µM"}
{"Structure (SMILES)": "CCn1cc(-c2cc(Cn3ccnc3)cc3c2CCN([C@H](c2cc(OC)ccn2)C2CC2)C3=O)c(C(F)(F)F)n1", "cell line": "Hs 294T", "test": "cell growth, inhibitor", "setting": "120 h", "EC50": "0.426 µM"}
{"note": "Excerpt of the above:"}
{"Structure (SMILES)": "Fc1ccc(Oc2ccc(Nc3ccc4ncc(OCC5CCNCC5)nc4c3)cc2)cc1", "cell line": "Jurkat", "test": "cell growth, XTT", "setting": "7 days", "EC50": "0.77 ± 0.1 µM"}
{"Structure (SMILES)": "CCn1cc(-c2cc(Cn3ccnc3)cc3c2CCN([C@H](c2cc(OC)ccn2)C2CC2)C3=O)c(C(F)(F)F)n1", "cell line": "Hs 294T", "test": "cell growth, inhibitor", "setting": "120 h", "EC50": "0.426 µM"}
